Measured values from different studies.
Each numbered part is a random draw from the data of one study; scales do not carry over between parts.
Sequence of UniProt Q9NYL2 (whole entry, looked up): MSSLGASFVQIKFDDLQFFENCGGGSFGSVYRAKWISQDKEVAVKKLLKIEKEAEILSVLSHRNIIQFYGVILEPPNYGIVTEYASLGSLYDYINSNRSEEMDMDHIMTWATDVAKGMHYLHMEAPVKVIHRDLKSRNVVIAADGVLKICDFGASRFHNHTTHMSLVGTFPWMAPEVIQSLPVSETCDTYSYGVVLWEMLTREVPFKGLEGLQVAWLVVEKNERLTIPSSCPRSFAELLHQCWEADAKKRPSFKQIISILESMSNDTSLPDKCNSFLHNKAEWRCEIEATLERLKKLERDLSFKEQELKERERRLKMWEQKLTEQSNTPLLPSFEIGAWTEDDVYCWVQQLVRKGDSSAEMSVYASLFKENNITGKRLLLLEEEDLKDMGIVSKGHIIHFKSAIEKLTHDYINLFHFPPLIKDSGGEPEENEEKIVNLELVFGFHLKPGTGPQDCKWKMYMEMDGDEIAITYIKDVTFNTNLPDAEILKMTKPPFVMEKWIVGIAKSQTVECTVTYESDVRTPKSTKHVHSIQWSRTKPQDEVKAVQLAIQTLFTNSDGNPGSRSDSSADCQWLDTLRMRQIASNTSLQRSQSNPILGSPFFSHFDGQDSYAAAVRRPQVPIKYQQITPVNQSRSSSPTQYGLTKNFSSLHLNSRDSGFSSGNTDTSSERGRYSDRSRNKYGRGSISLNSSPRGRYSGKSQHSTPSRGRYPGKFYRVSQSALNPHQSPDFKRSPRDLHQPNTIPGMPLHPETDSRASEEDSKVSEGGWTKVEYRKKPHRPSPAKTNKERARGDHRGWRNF
Sequence of UniProt Q9H1R3 (whole entry, looked up): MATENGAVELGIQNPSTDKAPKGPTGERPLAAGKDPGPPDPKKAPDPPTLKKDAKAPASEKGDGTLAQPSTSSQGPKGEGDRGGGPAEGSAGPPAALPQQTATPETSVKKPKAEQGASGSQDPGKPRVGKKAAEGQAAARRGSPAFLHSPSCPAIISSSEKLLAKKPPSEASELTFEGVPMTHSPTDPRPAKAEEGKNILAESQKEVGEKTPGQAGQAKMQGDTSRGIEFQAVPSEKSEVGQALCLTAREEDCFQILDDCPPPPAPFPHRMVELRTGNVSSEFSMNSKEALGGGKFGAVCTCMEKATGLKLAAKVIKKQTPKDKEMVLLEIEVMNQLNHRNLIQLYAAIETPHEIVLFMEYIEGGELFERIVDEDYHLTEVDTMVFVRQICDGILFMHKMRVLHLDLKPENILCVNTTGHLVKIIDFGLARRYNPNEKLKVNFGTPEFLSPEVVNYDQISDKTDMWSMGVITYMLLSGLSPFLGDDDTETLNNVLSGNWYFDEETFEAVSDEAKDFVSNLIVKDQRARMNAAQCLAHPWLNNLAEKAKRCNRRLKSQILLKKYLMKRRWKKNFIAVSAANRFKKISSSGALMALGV
Sequence of UniProt P24723 (whole entry, looked up): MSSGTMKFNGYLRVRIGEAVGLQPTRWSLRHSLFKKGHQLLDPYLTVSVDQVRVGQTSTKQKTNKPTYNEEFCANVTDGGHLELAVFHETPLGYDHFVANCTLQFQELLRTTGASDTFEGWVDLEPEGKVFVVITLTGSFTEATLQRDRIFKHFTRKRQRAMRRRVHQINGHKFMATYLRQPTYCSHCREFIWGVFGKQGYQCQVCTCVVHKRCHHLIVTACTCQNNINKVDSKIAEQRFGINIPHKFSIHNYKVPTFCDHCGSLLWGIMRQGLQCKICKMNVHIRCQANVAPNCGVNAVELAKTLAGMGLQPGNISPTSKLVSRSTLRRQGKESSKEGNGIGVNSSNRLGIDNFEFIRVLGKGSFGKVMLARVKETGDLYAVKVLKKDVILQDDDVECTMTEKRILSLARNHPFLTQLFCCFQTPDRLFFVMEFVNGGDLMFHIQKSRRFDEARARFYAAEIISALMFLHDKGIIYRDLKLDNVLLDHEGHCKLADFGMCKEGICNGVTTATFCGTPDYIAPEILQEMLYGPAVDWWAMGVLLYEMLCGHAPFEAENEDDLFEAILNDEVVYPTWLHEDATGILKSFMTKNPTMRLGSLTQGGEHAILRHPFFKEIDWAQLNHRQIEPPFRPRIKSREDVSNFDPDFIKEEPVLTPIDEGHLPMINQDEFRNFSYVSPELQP
Sequence of UniProt Q9UQB9 (whole entry, looked up): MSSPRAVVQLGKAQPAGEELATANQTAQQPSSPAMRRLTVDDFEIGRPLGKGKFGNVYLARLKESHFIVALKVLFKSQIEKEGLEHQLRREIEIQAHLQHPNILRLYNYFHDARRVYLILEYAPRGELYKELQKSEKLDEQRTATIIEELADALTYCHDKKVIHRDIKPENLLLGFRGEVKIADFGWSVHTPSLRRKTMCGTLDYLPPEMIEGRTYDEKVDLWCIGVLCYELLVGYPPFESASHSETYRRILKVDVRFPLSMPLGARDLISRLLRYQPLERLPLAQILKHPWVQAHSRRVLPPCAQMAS
Sequence of UniProt Q15418 (whole entry, looked up): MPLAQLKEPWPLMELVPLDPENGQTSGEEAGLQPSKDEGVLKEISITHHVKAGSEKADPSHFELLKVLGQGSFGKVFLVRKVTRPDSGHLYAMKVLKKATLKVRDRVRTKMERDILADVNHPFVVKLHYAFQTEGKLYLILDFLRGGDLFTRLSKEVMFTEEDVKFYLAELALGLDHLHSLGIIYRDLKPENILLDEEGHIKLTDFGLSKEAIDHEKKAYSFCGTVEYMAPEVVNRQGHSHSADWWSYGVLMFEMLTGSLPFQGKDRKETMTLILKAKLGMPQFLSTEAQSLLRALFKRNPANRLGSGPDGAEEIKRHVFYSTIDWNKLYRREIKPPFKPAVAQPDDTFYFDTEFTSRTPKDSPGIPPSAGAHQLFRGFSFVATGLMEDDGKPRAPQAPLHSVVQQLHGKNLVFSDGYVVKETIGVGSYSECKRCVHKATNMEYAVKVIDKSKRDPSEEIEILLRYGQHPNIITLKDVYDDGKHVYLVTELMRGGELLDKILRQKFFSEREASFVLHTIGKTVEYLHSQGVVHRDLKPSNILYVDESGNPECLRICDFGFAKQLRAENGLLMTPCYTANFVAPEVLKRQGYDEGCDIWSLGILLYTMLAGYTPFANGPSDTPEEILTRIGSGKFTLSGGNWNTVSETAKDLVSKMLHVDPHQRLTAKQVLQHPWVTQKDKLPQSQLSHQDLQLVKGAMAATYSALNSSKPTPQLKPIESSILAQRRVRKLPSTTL
Sequence of UniProt P33981 (whole entry, looked up): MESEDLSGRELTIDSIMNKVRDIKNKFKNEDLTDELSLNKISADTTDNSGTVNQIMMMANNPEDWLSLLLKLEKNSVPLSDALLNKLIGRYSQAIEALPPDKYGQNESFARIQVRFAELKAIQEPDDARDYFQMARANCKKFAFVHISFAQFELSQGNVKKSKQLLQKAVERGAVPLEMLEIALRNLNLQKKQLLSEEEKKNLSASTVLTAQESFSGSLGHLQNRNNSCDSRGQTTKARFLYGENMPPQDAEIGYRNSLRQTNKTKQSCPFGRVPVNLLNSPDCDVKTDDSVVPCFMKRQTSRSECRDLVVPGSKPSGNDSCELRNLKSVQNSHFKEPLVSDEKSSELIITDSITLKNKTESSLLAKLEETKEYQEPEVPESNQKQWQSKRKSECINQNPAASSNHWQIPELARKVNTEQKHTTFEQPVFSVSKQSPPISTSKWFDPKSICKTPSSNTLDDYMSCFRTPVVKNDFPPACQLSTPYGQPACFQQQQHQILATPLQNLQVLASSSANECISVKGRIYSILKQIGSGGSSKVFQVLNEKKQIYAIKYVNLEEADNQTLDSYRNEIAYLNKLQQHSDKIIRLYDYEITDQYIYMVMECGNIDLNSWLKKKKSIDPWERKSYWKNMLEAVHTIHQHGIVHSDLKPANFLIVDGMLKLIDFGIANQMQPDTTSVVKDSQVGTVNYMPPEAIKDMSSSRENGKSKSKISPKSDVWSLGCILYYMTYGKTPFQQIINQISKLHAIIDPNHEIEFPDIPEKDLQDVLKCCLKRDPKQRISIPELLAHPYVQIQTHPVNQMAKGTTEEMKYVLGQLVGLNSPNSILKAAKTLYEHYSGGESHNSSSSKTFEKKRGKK
Sequence of UniProt O15111 (whole entry, looked up): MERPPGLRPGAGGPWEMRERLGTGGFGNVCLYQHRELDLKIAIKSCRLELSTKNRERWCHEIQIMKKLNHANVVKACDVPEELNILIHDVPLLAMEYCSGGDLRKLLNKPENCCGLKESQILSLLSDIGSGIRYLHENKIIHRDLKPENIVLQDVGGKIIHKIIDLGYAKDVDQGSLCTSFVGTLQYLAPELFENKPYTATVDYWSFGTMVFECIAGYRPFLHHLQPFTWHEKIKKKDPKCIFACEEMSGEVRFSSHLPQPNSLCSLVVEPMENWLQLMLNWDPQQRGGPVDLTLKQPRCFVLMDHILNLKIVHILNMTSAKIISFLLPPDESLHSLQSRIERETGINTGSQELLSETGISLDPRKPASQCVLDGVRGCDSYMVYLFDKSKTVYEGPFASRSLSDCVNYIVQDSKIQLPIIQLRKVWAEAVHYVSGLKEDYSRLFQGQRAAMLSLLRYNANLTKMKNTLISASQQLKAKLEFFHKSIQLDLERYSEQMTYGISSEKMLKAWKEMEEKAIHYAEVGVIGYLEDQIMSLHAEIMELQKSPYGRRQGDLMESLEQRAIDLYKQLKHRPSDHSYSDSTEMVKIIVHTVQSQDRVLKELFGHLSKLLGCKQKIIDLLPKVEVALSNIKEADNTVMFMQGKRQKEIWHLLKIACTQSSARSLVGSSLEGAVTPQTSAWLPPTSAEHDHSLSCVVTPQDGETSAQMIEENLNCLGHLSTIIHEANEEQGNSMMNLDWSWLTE

Study 1
Target: panel of 300 human kinases
Concentration: 0.5 µM
Direction: higher = more selective
Measurement: Gini score
O=c1cc(N2CCNCC2)oc2c(-c3ccccc3)cccc12: 0.69
O=C1NC(=O)/C(=C/c2ccc3c(c2)OC(F)(F)O3)S1: 0.63
NC(=O)c1ccc(-c2nc(-c3ccc4c(c3)OCCO4)c(-c3ccccn3)[nH]2)cc1: 0.68
CC(C)(C)c1nc2c3cc[nH]c(=O)c3c3cc(F)ccc3c2[nH]1: 0.54
CC(C)[C@H](CO)Nc1nc(Nc2cc(N)cc(Cl)c2)c2ncn(C(C)C)c2n1: 0.62
Cn1sc(=O)n(Cc2ccccc2)c1=O: 0.69
O=S(=O)(c1cccc2cnccc12)N1CCCNCC1: 0.63
NCCNc1ncc(C(N)=O)c(Nc2cccc(C(F)(F)F)c2)n1: 0.58
Nc1nc(Nc2ccc(S(N)(=O)=O)cc2)nn1C(=S)Nc1c(F)cccc1F: 0.37
N#CCCc1ccc2c(c1)-c1[nH]c3ccc([N+](=O)[O-])cc3c1CC(=O)N2: 0.61
CC[C@H](CO)Nc1nc(NCc2ccccc2)c2ncn(C(C)C)c2n1: 0.7
Cc1nc(-c2ccccc2)c(-c2ccncc2)o1: 0.71
Clc1ccc(Nc2nnc(Cc3ccncc3)c3ccccc23)cc1: 0.73
Cc1cccc(-c2[nH]c(C(C)(C)C)nc2-c2ccc3c(c2)OCO3)n1: 0.67

Study 2
SMILES: CN1CCN(C(=O)c2ccc(NC(=O)Nc3ccc(N(C)c4ccnc(Nc5ccc(CS(C)(=O)=O)cc5)n4)cc3)cc2)CC1
Read-out: binding
Concentration: 1 µM
Measurement: remaining binding
FGFR3 (Homo sapiens, UniProt P22607); competition with immobilised ligand: 100%
TTK (Homo sapiens, UniProt P33981); competition with immobilised ligand: 61%
PRKCH (Homo sapiens, UniProt P24723): 100%
PLK2 (Homo sapiens, UniProt Q9NYY3): 100%
EGFR (Homo sapiens, UniProt P00533, T790M): 54%
PRKD1 (Homo sapiens, UniProt Q15139): 100%
CDKL2 (Homo sapiens, UniProt Q92772); competition with immobilised ligand: 1.7%
Ribosomal protein S6 kinase alpha-1, C-terminal kinase domain (RPS6KA1, Homo sapiens, UniProt Q15418); competition with immobilised ligand: 93%
PAK3 (Homo sapiens, UniProt O75914): 0%
MAP3K20 (Homo sapiens, UniProt Q9NYL2); competition with immobilised ligand: 86%
TGFBR2 (Homo sapiens, UniProt P37173); competition with immobilised ligand: 26%
KIT (Homo sapiens, UniProt P10721, L576P): 0%

Study 3
Sample: hydrocarbon/water
Measurement: logD
CC[C@@H]1C(=O)N(C)[C@@H](CC2CCCCC2)C(=O)N[C@@H](CC2CCCCC2)C(=O)N2CCC[C@@H]2C(=O)N(C)[C@@H](Cc2ccc(O)cc2)C(=O)N[C@@H](CC(C)C)C(=O)N1C: 3.03
CCC[C@@H]1NC(=O)[C@H](C)N(C)C(=O)[C@H](CC(C)C)NC(=O)Cn2cc(nn2)CN(C)C(=O)[C@H](CC(C)C)NC(=O)[C@H](C)N(C)C(=O)[C@H](CC2CCCCC2)NC(=O)CN(CC)C(=O)[C@H]2CCCN2C1=O: 0.109
CCCCCN1CC(=O)NC(CC(C)C)C(=O)N(C)C(C)C(=O)NC(C)C(=O)N2CCCC2C(=O)N(CCCOC(C)C)CC(=O)NC(CC(C)C)C(=O)N(C)C(C)C(=O)NC(CC(C)C)C(=O)N2CCCC2C1=O (centres unmarked): 2.52
CCC[C@@H]1NC(=O)[C@H](C)N(C)C(=O)[C@H](CC(C)C)NC(=O)Cn2cc(nn2)CN(C)C(=O)[C@H](CC(C)C)NC(=O)[C@H](C)N(C)C(=O)[C@H](CC)NC(=O)CN(CC)C(=O)[C@H]2CCCN2C1=O: -2.45
CCC[C@H]1NC(=O)CSC[C@@H](C(=O)OCC)N(C)C(=O)[C@H](CC(C)C)NC(=O)[C@H](C)N(C)C(=O)[C@@H](CC(C)C)NC(=O)[C@H](C)N(C)C(=O)[C@H]2CCCN2C(=O)[C@@H](CC(C)C)NC(=O)CN(CCC)C1=O: 1.51
CCCN1CC(=O)N[C@@H](CC2CCCCC2)C(=O)N2CCC[C@@H]2C(=O)N(C)[C@@H](C)C(=O)N[C@@H](CC2CCCCC2)C(=O)N(C)[C@@H](C)C(=O)N[C@@H](CC(C)C)C(=O)N(C)Cc2cn(nn2)CC(=O)N[C@@H](CC(C)C)C1=O: 1.96
CC[C@H]1C(=O)N[C@@H](CC(C)C)C(=O)N2CCC[C@@H]2C(=O)N(C)[C@@H](Cc2ccc(O)cc2)C(=O)N[C@@H](CC(C)C)C(=O)N(C)[C@H](C)C(=O)N1C: -0.209
CCN1CC(=O)N[C@@H](CC(C)C)C(=O)N2CCC[C@@H]2C(=O)N(C)[C@@H](CC(C)C)C(=O)N[C@@H](C)C(=O)N(CC2CCOCC2)CC(=O)N[C@@H](C)C(=O)N2CCC[C@@H]2C(=O)N(C)[C@@H](CC(C)C)C(=O)N[C@@H](C)C1=O: -0.599
CCC[C@@H]1NC(=O)CN(CC)C(=O)[C@H](CC(C)C)NC(=O)Cn2cc(nn2)CN(C)C(=O)[C@H](CC(C)C)NC(=O)[C@H](C)N(C)C(=O)[C@H](CC)NC(=O)[C@H](C)N(C)C(=O)[C@H]2CCCN2C1=O: -2.49
CCOC(=O)[C@@H]1CSCC(=O)N[C@H](CC)C(=O)N(C)[C@@H](C)C(=O)N[C@H](CC(C)C)C(=O)N2CCC[C@H]2C(=O)N(CC)CC(=O)N[C@H](CC(C)C)C(=O)N(C)[C@H](C)C(=O)N[C@@H](CC(C)C)C(=O)N1C: 1.02
CCCCCN1CC(=O)N[C@@H](C)C(=O)N2CCC[C@@H]2C(=O)N(C)[C@@H](CC(C)C)C(=O)N[C@@H](C)C(=O)N(CCCOC(C)C)CC(=O)N[C@@H](CC(C)C)C(=O)N2CCC[C@@H]2C(=O)N(C)[C@@H](CC(C)C)C(=O)N[C@@H](C)C1=O: 1.97

Study 4
Compound: Nc1cnc(N2CCc3cc(S(=O)(=O)Nc4c(F)cc(Cl)cc4F)cc(N4CCCC4=O)c32)nc1
Concentration: 1 µM
Measurement: remaining binding
FGFR1 (Homo sapiens, UniProt P11362); cell-free assay, competition with immobilised ligand: 88%
MYLK2 (Homo sapiens, UniProt Q9H1R3); cell-free assay, competition with immobilised ligand: 87%
Aurora kinase C (AURKC, Homo sapiens, UniProt Q9UQB9); cell-free assay, competition with immobilised ligand: 100%
EGFR (Homo sapiens, UniProt P00533, T790M); cell-free assay, competition with immobilised ligand: 88%
MAP3K19 (Homo sapiens, UniProt Q56UN5); cell-free assay, competition with immobilised ligand: 100%
CSNK2A2 (Homo sapiens, UniProt P19784); cell-free assay, competition with immobilised ligand: 98%
STK36 (Homo sapiens, UniProt Q9NRP7); cell-free assay, competition with immobilised ligand: 98%
PIK3CA (Homo sapiens, UniProt P42336, Q546K); cell-free assay, competition with immobilised ligand: 78%
STK32C (Homo sapiens, UniProt Q86UX6); cell-free assay, competition with immobilised ligand: 100%
EGFR (Homo sapiens, UniProt P00533, del746-750); cell-free assay, competition with immobilised ligand: 74%
BMP2K (Homo sapiens, UniProt Q9NSY1); cell-free assay, competition with immobilised ligand: 88%
MET (Homo sapiens, UniProt P08581, M1250T); cell-free assay, competition with immobilised ligand: 100%
FLT3 (Homo sapiens, UniProt P36888, D835H); cell-free assay, competition with immobilised ligand: 100%
CHUK (Homo sapiens, UniProt O15111); cell-free assay, competition with immobilised ligand: 100%
MKNK2 (Homo sapiens, UniProt Q9HBH9); cell-free assay, competition with immobilised ligand: 100%
Ribosomal protein S6 kinase alpha-6, C-terminal kinase domain (RPS6KA6, Homo sapiens, UniProt Q9UK32); cell-free assay, competition with immobilised ligand: 100%
ERN1 (Homo sapiens, UniProt O75460); cell-free assay, competition with immobilised ligand: 100%
MAP2K4 (Homo sapiens, UniProt P45985); cell-free assay, competition with immobilised ligand: 100%
ACVR1B (Homo sapiens, UniProt P36896); cell-free assay, competition with immobilised ligand: 96%
AAK1 (Homo sapiens, UniProt Q2M2I8); binding: 100%
DYRK1B (Homo sapiens, UniProt Q9Y463); cell-free assay, competition with immobilised ligand: 100%
GSK3B (Homo sapiens, UniProt P49841); cell-free assay, competition with immobilised ligand: 100%
LIM domain kinase 2 (LIMK2, Homo sapiens, UniProt P53671); cell-free assay, competition with immobilised ligand: 100%
MAP3K1 (Homo sapiens, UniProt Q13233); cell-free assay, competition with immobilised ligand: 100%
MAP3K4 (Homo sapiens, UniProt Q9Y6R4); cell-free assay, competition with immobilised ligand: 85%

A few entries again (study 4):
AAK1 (Homo sapiens, UniProt Q2M2I8); binding: 100%
DYRK1B (Homo sapiens, UniProt Q9Y463); cell-free assay, competition with immobilised ligand: 100%
GSK3B (Homo sapiens, UniProt P49841); cell-free assay, competition with immobilised ligand: 100%
LIM domain kinase 2 (LIMK2, Homo sapiens, UniProt P53671); cell-free assay, competition with immobilised ligand: 100%
MAP3K1 (Homo sapiens, UniProt Q13233); cell-free assay, competition with immobilised ligand: 100%
MAP3K4 (Homo sapiens, UniProt Q9Y6R4); cell-free assay, competition with immobilised ligand: 85%
